Values quoted from earlier work as cited in several papers.
Numbered parts are unrelated; values within a part may stem from several laboratories. Several values in a cell are separate wells, animals, samples, runs or records. Numbers after ± are the reported error.
Chain of UniProt Q91XE4 (whole entry, looked up): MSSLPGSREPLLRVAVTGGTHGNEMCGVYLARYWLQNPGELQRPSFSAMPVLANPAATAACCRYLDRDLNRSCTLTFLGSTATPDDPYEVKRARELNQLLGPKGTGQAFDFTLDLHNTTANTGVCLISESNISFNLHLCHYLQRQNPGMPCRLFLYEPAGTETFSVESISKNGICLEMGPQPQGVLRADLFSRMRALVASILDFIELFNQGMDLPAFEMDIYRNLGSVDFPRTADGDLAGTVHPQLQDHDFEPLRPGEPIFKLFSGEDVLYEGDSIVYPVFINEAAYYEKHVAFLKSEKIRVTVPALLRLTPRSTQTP
Chain of UniProt P35348 (whole entry, looked up): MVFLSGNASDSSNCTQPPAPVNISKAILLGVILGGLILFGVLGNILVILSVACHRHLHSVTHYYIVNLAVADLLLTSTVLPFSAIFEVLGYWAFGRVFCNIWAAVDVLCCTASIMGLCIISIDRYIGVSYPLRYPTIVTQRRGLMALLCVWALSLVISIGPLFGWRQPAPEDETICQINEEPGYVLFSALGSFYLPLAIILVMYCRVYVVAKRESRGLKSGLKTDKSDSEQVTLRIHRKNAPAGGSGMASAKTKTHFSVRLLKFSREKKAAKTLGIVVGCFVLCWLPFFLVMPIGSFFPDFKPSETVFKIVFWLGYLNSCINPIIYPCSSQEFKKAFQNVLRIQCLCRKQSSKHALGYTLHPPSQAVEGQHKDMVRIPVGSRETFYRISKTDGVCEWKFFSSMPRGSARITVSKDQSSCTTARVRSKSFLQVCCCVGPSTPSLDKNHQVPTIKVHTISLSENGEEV

Series 1 — organism: Cryptosporidium parvum; technique: high-throughput screen; concentration: concentration not given; endpoint: activity
C=C1C[C@@H]2[C@H](CC[C@]3(C)C(=O)CC[C@@H]23)[C@@]2(C)C=CC(=O)C=C12: inactive
FC(F)(F)c1cccc(N2CCNCC2)c1: inactive
CCOC(=O)C1(c2ccccc2)CCN(CCC(C#N)(c2ccccc2)c2ccccc2)CC1: inactive
COc1ccc(C(CN(C)C)C2(O)CCCCC2)cc1 (stereo not drawn): inactive
CNCC(O)c1ccc(O)cc1 (stereo not drawn): inactive
C[C@]12Cc3c[nH]nc3C[C@@H]1CC[C@@H]1[C@@H]2CC[C@@]2(C)[C@H]1CC[C@]2(C)O: inactive
Cc1ncc2n1-c1ccc(Cl)cc1C(c1ccccc1F)=NC2: inactive
c1cncc([C@@H]2CCCN2)c1: inactive
NC1=NC(=O)C(c2ccccc2)O1 (stereo not drawn): inactive
CC(C)N(CCC(C(N)=O)(c1ccccc1)c1ccccn1)C(C)C (stereo not drawn): inactive
COc1ccc2[nH]cc(CCN)c2c1: inactive
Cl.OC1CCCCC1N1CCC(c2ccccc2)CC1 (racemic): inactive
CN1CCN(C(=O)O[C@H]2c3nccnc3C(=O)N2c2ccc(Cl)cn2)CC1: inactive
c1ccc(Cn2ccnc2)cc1: inactive
CCN(C(C)=O)c1cccc(-c2ccnc3c(C#N)cnn23)c1: inactive
CC(NC(C)(C)C)C(=O)c1cccc(Cl)c1 (stereo not drawn): inactive
Oc1cc(Cl)ccc1Oc1ccc(Cl)cc1Cl: inactive
CC(C)CC(N(C)C)C1(c2ccc(Cl)cc2)CCC1.Cl (stereo not drawn): inactive
CCN(CC)CCOC(=O)C(O)(c1ccccc1)c1ccccc1.Cl: inactive
O=C(O)C(Cl)Cl: inactive
CCCCCCCCCOc1ccc2[nH]cc(CCN)c2c1: inactive
CCC1(c2ccc(N)cc2)CCC(=O)NC1=O (stereo not drawn): inactive
COc1ccc(CCN)cc1OC: inactive
Cc1nnc2n1-c1ccc(Cl)cc1C(c1ccccc1)=NC2: inactive

Further values, each from its own experiment
O=C(NCc1ncc(-c2ccc(Br)cc2)[nH]1)Nc1ncc(Sc2ccccn2)s1
IC50 (Streptococcus pneumoniae FabK; inhibitor): 0.0024 µM

CNCCCN(C)C(=O)Oc1c(Br)c(C)nc(C)c1-c1ccc(Oc2ccc(OC(F)(F)F)cc2)cc1
IC50 (Plasmodium falciparum; whole cell extended time; 3D7; 72 h): 0.39 µM

CC(O)CN1CCN(CC[S+]([O-])C(c2ccc(F)cc2)c2ccc(F)cc2)CC1 (stereo not drawn)
half-life (mouse liver microsomes): 60 min

COc1c(Br)c2c3c(c1OC)-c1cc4c(cc1C[C@@H]3N(C)CC2)OCO4
Ke (Alpha-1A adrenergic receptor (ADRA1A, Homo sapiens, UniProt P35348); antagonist): > 10 µM

CC(=O)N[C@@H](CSC(Cl)=CCl)C(=O)O
kcat (N-acyl-aromatic-L-amino acid amidohydrolase (carboxylate-forming) (Acy3, Mus musculus, UniProt Q91XE4); substrate; together with: Co2+ 0.1 mM): 2.28 s⁻¹

Cc1ncc2n1-c1ccc(Cl)cc1C(c1ccccc1F)=NC2
Km (UGT1A4; direct glucuronidation, substrate; Simcyp library default value): 40.3 µM

Cc1cccc2c1ccc1cc(C(C)C)ccc12
amount in tissue (zebrafish embryos, whole embryo; 271.8 ng/well, 48 hpf, single exposure): 7.11 ng/well and 6.11 ng/well and 5.09 ng/well

CN1CC[C@]2(C)c3cc(OC(=O)Nc4ccccc4)ccc3N(C)[C@H]12
dose-limiting dose (human; single dose, nausea and vomiting): 160 mg

Oc1ccc(-c2nc(-c3ccc(OC4CCCC4)cc3)no2)cc1
antibacterial activity (Gram-negative bacteria; concentration not given): inactive

O=S(=O)(O)C(F)(F)C(F)(F)C(F)(F)C(F)(F)C(F)(F)C(F)(F)F
efficacy (PPARα (human); reporter gene, agonist, Gal4 transactivation; human hepatocarcinoma cell line; relative to: positive control): 59%

CC(C)OC(=O)[C@H](C)N[P@](=O)(OC[C@H]1O[C@@H](n2ccc(=O)[nH]c2=O)[C@](C)(F)[C@@H]1O)Oc1ccccc1
plasma stability: > 24 h

CC(O)CN1C(C)CN(CCSC(c2ccc(F)cc2)c2ccc(F)cc2)CC1C (stereo not drawn)
half-life (mouse liver microsomes): 20 min

O=C(NC1CCC(CN2CCC(c3c[nH]c4ccccc34)CC2)CC1)c1cn(Cc2ccccc2)c2ccccc12 (stereo not drawn)
IC50 (Plasmodium falciparum; whole cell extended time; 3D7; 72 h): 1.13 µM

CCCCCc1cc(O)c2c(c1)OC(C)(C)c1ccc(C)cc1-2
inhibition (CYP2C9, human; enzyme activity, inhibitor; human liver microsomes; 10 µM): inhibited

O=C(O)C(F)(F)C(F)(F)C(F)(F)C(F)(F)C(F)(F)C(F)(F)C(F)(F)F
efficacy (PPARα (human); reporter gene, agonist, Gal4 transactivation; human hepatocarcinoma cell line; relative to: positive control): > 90%

C[C@@H](N)C1CCN(S(=O)(=O)c2cccc3cnccc23)CC1
NOAEL (monkey): 40 mg/kg/day

CC(=O)O[C@H]1C(=O)[C@@]2(C)[C@H]([C@H](OC(=O)c3ccccc3)[C@]3(O)C[C@H](OC(=O)[C@H](O)[C@@H](NC(=O)c4ccccc4)c4ccccc4)C(C)=C1C3(C)C)[C@]1(OC(C)=O)CO[C@@H]1C[C@@H]2O
IC50 (MCF7/PTX (paclitaxel-resistant); cell viability): 2.29 ± 0.125 µM

Nc1ccncc1
free Cmax (plasma; literature data): 0.23 µM

CC(=O)O[C@@]12CO[C@@H]1C[C@H](O)[C@@]1(C)C(=O)[C@H](OC(=O)C3CC3)C3=C(C)[C@@H](OC(=O)[C@H](O)[C@H](C=C(C)C)NC(=O)OC(C)(C)C)C[C@@](O)([C@@H](OC(=O)c4ccccc4)[C@H]21)C3(C)C
IC50 (MCF7; cytotoxicity): 0.00074 µM

C=C(C)[C@@H]1CCC(C)=C[C@H]1c1c(O)cc(CCCCC)cc1O
inhibition (CYP2E1 human; human liver microsomes; 10 µM): inhibited

CCN(C)C(=O)Oc1cccc([C@H](C)N(C)C)c1
free Cmax (plasma): 0.0599 µM

c1cc2ccc3cccc4ccc(c1)c2c34
bioconcentration factor (fish; dose not given, experimental mean): 169000 L/kg

OCCN1CCN(CCC=C2c3ccccc3Sc3ccc(C(F)(F)F)cc32)CC1
log2 fold change (MCF7; microarray, item: ZNF292 mRNA; concentration not given; relative to: DMSO): 1.17

CCCCCCCCCCCCOS(=O)(=O)[O-].[Na+]
pKa: -1.5
